Experimental data pooled from the literature.
Each numbered part is a random draw from the data of one study; scales do not carry over between parts. Several values in a cell are separate wells, animals, samples, runs or records.
Sequence of UniProt P08588 (whole entry, looked up): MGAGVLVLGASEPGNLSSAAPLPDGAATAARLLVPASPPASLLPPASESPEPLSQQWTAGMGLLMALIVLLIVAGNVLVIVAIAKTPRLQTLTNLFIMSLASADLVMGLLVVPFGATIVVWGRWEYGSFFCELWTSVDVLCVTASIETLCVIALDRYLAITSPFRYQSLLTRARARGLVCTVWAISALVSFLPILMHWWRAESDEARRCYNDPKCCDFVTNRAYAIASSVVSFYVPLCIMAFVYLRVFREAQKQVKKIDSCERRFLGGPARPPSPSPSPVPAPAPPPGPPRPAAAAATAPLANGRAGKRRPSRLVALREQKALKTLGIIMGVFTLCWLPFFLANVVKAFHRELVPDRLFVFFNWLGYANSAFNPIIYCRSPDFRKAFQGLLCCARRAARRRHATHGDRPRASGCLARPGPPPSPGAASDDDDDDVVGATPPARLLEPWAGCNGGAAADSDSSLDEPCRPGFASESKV
Sequence of UniProt P47898 (whole entry, looked up): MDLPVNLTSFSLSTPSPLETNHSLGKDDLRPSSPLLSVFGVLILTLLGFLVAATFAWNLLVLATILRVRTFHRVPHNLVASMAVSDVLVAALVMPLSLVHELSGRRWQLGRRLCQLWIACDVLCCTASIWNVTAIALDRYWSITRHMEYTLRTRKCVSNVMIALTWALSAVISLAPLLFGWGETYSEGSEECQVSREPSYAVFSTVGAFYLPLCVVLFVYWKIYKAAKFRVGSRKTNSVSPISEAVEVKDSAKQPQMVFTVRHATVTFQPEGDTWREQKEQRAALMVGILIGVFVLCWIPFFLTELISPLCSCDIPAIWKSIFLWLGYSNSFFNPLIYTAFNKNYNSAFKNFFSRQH

Series 1
Species: human
Medium: microsomes or S9
Tested at: 2 µM
Time: 0.5 h
The remaining compound of `CCOc1ccc(-c2nc(C)c(C(C)=O)n2O)cc1` is reported as 95.8%.
`CCCN(CC1CCCO1)C(=O)c1sc2ncn(C)c(=O)c2c1C` (stereo not shown) has a remaining compound of 92.4%.
For `c1ccc(OCC2=NN=C(COc3ccccc3)NN2)cc1`, the remaining compound was 97.7%.
The remaining compound of `CC1CCN(CCNS(=O)(=O)c2ccc(-c3ccc(=O)[nH]n3)s2)CC1` is reported as > 100%.
`Cc1cc(=O)[nH]c(-n2nc(C)cc2NC(=O)C(C)(C)Oc2ccc(Cl)cc2)n1` gave a remaining compound of 32.6%.

Series 2
Organism: Sarcocystis neurona
Read-out: parasite growth
Tested at: 10 µM
Time: 96 h
Setting: first screen
Relative to: untreated
`CC(=O)O[C@]1(C(C)=O)CC[C@H]2[C@@H]3C[C@H](C)C4=CC(=O)CC[C@]4(C)[C@H]3CC[C@@]21C` — result for “log2 fold change”: 0.17.
`CSc1ccc2c(c1)N(CCC1CCCCN1C)c1ccccc1S2` (stereo not shown) — result for “log2 fold change”: -0.57.
`CC(C)C(=O)Nc1ccc([N+](=O)[O-])c(C(F)(F)F)c1` — result for “log2 fold change”: 0.25.
Under “log2 fold change”, `O=C1[C@H](CC[C@H](O)c2ccc(F)cc2)[C@@H](c2ccc(O)cc2)N1c1ccc(F)cc1` is recorded as -0.65.
`CC(C)NCC(O)COc1cccc2[nH]ccc12` (stereo not shown): “log2 fold change” 0.39.
Under “log2 fold change”, `CSc1nc2cc(Cl)c(Oc3cccc(Cl)c3Cl)cc2[nH]1` is recorded as -0.51.
`COCCCC/C(=N\OCCN)c1ccc(C(F)(F)F)cc1`: “log2 fold change” -0.26.
`CCC1=C(C)CN(C(=O)NCCc2ccc(S(=O)(=O)NC(=O)N[C@H]3CC[C@H](C)CC3)cc2)C1=O`: “log2 fold change” 0.2.

Single results of other studies
For `Cn1cncc1[C@@](O)(COc1ccc(C#N)cc1-c1ccc(OC(F)(F)F)cc1)c1ccc(C#N)cc1`, the membrane-permeable cells was 33.1% and 27.8% (HEK293T; high-content imaging; 10 µM, 12 h).
`Cc1cc2c(OCC(CNC(C)(C)C)OC(=O)c3ccccc3)cccc2[nH]1` (stereo not shown) has an efficacy of 113% (ADRB1 (Homo sapiens, UniProt P08588); agonist; cells).
For `COc1cc(N[C@@H]2CCCC[C@]2(O)C(F)(F)F)ccc1F`, the inhibition was -10.9% (HTR5A (Homo sapiens, UniProt P47898); ligand displacement; 10 µM).

For quick reference, copied from above (series 1):
For `c1ccc(OCC2=NN=C(COc3ccccc3)NN2)cc1`, the remaining compound was 97.7%.
